Experimental data collected from several papers.
Every numbered part comes from another study and shows a few of its results, in no order. Positions count from the first letter of the parent shown. Converted amounts (≈) assume the structure as drawn.
Chain of UniProt Q9UPE1 (whole entry, looked up): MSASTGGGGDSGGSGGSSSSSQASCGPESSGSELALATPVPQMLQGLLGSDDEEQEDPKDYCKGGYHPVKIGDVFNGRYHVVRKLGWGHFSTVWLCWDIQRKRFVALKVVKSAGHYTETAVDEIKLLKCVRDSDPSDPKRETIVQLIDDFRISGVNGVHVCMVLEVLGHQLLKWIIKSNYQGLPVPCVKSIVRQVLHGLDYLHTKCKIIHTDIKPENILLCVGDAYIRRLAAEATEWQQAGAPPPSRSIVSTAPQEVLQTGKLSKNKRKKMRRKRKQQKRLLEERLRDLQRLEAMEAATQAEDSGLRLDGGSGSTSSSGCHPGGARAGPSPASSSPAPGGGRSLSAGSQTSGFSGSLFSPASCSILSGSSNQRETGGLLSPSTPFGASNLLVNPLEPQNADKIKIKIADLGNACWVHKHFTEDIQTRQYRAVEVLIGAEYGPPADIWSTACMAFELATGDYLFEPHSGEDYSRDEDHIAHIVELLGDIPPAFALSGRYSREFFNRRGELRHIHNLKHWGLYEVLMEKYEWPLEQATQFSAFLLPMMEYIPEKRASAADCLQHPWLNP

Sample 1 — technique: cross-linking MS; setting: hits only
Partner: Histone H2B type 1-C/E/F/G/I (Homo sapiens, UniProt P62807)
| Substance | interaction screen |
| --- | --- |
| HMGB2 (Homo sapiens, UniProt P26583) | cross-linked |
| H2BC5 (Homo sapiens, UniProt P58876) | cross-linked |
| H2AX (Homo sapiens, UniProt P16104) | cross-linked |
| H2AC11 (Homo sapiens, UniProt P0C0S8) | cross-linked |
| HMGN1 (Homo sapiens, UniProt P05114) | cross-linked |
| RCC1 (Homo sapiens, UniProt P18754) | cross-linked |

Sample 2 — technique: protein-binding microarray; form: double-stranded DNA, one strand shown; matrix: in vitro; tested at: 940 nM top; setting: 60-bp whole probe; added: salmon DNA 0.4 mg/ml; relative to: random background probes; direction: higher = stronger binding; shared flanks, not repeated: GCCTAGCAC … GTCTTGATTCGCTTGACGCTGCTG
Target: Interferon regulatory factor 5, full length, phosphomimetic (IRF5, Homo sapiens, UniProt Q13568-2, residues 1-514, S451D/S453D/S456D/S462D)
| Oligonucleotide | fitted relative affinity [z-score] |
| --- | --- |
| ATATATTTATGTATACACACGTGCTAG | 0.218 |
| GCCGGTTTCCTTCTCCTGACGTGCTAG | 2.14 |
| CTGGTCCTCCTGACTGGGGTGGTGCTA | -0.204 |
| GACGGTTTCGACTTTCGGGAAGTGCTA | 7.34 |
| GACAATTCCAGTTTCGAGACGTGCTAG | 4.67 |
| CCTAATTCTCTTTTCACTTTGTGCTAG | 2.31 |
| GACGGTTGCCTTTTCCTGACGTGCTAG | 0.317 |
| GACGGTCTCCTTATCCTTACGTGCTAG | 0.655 |

Sample 3 — technique: RNA Bind-n-Seq; form: RNA; matrix: in vitro; tested at: 20 nM; setting: 6-mer, flanks averaged, single round; added: 150 mM LiCl; relative to: input library; direction: higher = stronger binding
Target: TAR DNA-binding protein 43, full length, His tag (TARDBP, Homo sapiens, UniProt Q13148, residues 1-414)
| Oligonucleotide | 6-mer enrichment (R) |
| --- | --- |
| AAAAUC | 0.858 |
| ACUGUC | 0.874 |
| AAGACC | 0.807 |
| CCUAAG | 0.847 |
| AGUCCC | 0.958 |
| UCCGGG | 0.963 |
| AAGGUG | 1.14 |
| AGCGGC | 0.976 |

Sample 4 — target: inorganic phosphate, free oxyanion; technique: microfluidic competitive inhibition; matrix: in vitro, cell-free expressed; tested at: not given; direction: lower = stronger binding
Setting: derived from inhibition constants, unchanged parent 615000 nM
Starting sequence: PafA, mature enzyme, eGFP fusion (Elizabethkingia meningoseptica, UniProt Q9KJX5); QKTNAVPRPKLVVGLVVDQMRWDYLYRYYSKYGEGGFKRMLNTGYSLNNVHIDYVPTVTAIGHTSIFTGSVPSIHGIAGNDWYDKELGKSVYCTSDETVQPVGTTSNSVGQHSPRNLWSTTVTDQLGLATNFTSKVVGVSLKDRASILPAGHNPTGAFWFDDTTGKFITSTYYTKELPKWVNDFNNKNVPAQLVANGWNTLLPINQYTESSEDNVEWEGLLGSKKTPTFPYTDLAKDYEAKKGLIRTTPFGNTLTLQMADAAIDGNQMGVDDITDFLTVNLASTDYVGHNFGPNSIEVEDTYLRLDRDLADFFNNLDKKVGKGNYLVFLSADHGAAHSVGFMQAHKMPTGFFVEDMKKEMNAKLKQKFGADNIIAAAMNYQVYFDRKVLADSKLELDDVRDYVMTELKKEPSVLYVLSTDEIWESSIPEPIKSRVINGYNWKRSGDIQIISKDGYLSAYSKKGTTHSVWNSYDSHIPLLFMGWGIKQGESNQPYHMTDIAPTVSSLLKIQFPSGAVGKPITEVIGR
| Substitution | phosphate dissociation constant [µM] |
| --- | --- |
| I273V | 617 |
| D311G | 586 |
| V339A | 567 |
| L25V | 572 |
| N48V | 483 |
| S146G | 656 |
| M378G | 665 |
| G156A | 518 |
| F276V | 478 |
| S95G | 575 |
| I52V | 362 |
| I436V | 640 |
| V102A | 603 |
| R246V | 1690 |
| I520V | 599 |
| N49V | 498 |
| D473G | 135 |
| N252V | 455 |
| R304V | 591 |
| T120V | 497 |
| P519V | 646 |
| T171G | 558 |
| I204V | 722 |
| P114G | 575 |
| T521G | 518 |

Other studies, line by line
| Substance | tested on | assay | test system | conditions | scale | endpoint | result |
| --- | --- | --- | --- | --- | --- | --- | --- |
| nisin | Staphylococcus aureus |  | hemB transposon mutant |  | relative to: wild type | MIC | no effect |
| Cn1cncc1[C@@](O)(COc1ccc(C#N)cc1-c1ccc(OC(F)(F)F)cc1)c1ccc(C#N)cc1 | SRSF protein kinase 3 (SRPK3, Homo sapiens, UniProt Q9UPE1) | cell-free assay, competition with immobilised ligand |  | 1 µM |  | remaining binding | 56% |
| CCCCC[C@@H](O)CC(=O)N[C@@H]1C(=O)N[C@H](CCCNC(=N)N)C(=O)N[C@@H](CO)C(=O)NCC(=O)N(C)[C@H](Cc2ccccc2)C(=O)N[C@@H](CC(C)C)C(=O)N[C@H](CCCNC(=N)N)C(=O)N[C@@H](CO)C(=O)N[C@H]([C@H](C)O)C(=O)N[C@H](Cc2c[nH]c3ccccc23)C(=O)N[C@@H]([C@@H](C)CC)C(=O)NCC(=O)O[C@@H]1C | Staphylococcus aureus |  | USA300 | added: ubiquinone 16 µg/mL |  | MIC | 8 µg/mL (≈ 5.27 µM) |
| lysobactin | Staphylococcus aureus |  | hemB transposon mutant |  | relative to: wild type | MIC | no effect |

Repeated from above (sample 4):
| Substitution | phosphate dissociation constant [µM] |
| --- | --- |
| L25V | 572 |
| P519V | 646 |
| V339A | 567 |
| I520V | 599 |
| S146G | 656 |
| I436V | 640 |
| R304V | 591 |
| D473G | 135 |
